Measurements collected from several papers.
Each line is one published result; not all experiments were run side by side. Values joined by “and” are separate records of one study, mostly repeats; a detail may differ. Numbers after ± are the reported error.
Chymotrypsinogen A: Chymotrypsinogen A (Bos taurus, UniProt P00766)
CA9: Carbonic anhydrase 9 (CA9, Homo sapiens, UniProt Q16790)
OPRK1: Kappa-type opioid receptor (OPRK1, Homo sapiens, UniProt P41145)
Chain of UniProt P41145 (whole entry, looked up): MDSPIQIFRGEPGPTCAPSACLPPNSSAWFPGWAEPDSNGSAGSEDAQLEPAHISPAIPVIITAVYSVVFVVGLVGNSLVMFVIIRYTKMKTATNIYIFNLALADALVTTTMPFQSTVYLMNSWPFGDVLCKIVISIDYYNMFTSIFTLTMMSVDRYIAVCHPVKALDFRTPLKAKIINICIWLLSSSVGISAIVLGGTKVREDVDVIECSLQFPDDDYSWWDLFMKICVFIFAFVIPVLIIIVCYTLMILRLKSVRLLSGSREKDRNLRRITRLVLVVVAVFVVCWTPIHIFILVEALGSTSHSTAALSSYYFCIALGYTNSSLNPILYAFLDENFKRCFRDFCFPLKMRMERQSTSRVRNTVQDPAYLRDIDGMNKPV
SIGMAR1: Sigma non-opioid intracellular receptor 1 (SIGMAR1, Homo sapiens, UniProt Q99720)
CARM1: Histone-arginine methyltransferase CARM1 (CARM1, Homo sapiens, UniProt Q86X55)
Chain of UniProt Q86X55 (whole entry, looked up): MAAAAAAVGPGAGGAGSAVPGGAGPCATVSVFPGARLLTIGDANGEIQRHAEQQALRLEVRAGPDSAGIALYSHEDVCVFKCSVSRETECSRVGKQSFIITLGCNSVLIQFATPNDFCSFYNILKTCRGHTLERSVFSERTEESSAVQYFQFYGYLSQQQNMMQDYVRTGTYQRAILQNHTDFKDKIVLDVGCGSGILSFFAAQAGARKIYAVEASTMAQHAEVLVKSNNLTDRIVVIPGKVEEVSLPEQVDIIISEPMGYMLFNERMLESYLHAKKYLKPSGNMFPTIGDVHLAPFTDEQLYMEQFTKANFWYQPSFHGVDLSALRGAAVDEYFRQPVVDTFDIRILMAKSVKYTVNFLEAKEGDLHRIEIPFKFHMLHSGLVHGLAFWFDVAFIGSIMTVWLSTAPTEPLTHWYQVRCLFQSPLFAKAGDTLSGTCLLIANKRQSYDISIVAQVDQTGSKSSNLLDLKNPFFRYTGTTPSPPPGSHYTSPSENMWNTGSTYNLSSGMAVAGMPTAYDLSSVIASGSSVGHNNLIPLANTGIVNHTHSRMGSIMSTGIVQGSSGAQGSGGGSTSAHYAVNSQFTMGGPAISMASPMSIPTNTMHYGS
SLC6A3: Sodium-dependent dopamine transporter (SLC6A3, Homo sapiens, UniProt Q01959)
Chain of UniProt Q01959 (whole entry, looked up): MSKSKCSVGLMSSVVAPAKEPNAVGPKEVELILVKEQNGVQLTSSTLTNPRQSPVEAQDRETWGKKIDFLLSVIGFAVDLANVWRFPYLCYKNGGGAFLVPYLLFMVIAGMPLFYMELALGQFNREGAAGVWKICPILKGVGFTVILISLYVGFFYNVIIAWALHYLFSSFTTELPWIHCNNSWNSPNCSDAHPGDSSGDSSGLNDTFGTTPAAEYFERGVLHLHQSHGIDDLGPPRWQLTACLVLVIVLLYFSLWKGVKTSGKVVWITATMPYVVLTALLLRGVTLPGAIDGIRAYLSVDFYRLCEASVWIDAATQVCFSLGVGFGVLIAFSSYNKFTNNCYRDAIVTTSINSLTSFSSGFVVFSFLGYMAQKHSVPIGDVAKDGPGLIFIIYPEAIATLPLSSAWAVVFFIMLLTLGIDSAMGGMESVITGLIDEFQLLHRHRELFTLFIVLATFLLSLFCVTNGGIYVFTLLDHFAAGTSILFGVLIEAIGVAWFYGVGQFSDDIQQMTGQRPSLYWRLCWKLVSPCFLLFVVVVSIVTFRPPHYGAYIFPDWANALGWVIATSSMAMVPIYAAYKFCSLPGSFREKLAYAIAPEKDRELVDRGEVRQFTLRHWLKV
ache: Acetylcholinesterase (ache, Electrophorus electricus, UniProt O42275)
Chain of UniProt O42275 (whole entry, looked up): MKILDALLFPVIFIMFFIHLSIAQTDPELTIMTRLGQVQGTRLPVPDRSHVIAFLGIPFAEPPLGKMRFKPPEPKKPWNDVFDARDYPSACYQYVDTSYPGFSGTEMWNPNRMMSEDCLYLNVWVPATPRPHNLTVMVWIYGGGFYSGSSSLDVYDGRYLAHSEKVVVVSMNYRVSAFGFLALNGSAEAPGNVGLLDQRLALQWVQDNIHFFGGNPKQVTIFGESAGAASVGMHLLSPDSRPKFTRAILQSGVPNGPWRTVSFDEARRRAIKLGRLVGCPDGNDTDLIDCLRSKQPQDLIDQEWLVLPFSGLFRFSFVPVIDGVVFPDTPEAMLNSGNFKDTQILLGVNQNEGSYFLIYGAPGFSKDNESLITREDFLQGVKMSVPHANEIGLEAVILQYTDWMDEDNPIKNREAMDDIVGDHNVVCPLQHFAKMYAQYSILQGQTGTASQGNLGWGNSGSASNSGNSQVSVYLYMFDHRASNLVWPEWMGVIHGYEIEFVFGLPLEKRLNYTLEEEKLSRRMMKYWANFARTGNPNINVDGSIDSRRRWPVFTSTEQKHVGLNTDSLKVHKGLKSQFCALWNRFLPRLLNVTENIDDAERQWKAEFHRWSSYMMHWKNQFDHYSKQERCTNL
Chain of UniProt P33913 (whole entry, looked up): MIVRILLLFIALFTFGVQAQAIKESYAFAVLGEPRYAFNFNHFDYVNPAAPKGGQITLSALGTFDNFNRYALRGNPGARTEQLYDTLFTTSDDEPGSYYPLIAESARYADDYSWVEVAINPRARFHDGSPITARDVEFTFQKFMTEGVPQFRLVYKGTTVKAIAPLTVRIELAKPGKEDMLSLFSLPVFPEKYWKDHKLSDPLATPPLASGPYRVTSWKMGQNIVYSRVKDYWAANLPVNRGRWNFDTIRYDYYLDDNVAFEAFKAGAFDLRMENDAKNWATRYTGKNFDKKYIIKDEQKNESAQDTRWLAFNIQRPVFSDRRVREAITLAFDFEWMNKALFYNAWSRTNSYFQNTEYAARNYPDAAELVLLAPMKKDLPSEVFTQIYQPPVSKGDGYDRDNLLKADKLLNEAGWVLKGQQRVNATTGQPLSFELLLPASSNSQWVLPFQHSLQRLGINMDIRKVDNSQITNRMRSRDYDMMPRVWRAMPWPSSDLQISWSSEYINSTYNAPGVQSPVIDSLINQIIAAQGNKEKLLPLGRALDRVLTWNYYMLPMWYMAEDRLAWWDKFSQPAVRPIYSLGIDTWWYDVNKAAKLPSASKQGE
Chain of UniProt P25100 (whole entry, looked up): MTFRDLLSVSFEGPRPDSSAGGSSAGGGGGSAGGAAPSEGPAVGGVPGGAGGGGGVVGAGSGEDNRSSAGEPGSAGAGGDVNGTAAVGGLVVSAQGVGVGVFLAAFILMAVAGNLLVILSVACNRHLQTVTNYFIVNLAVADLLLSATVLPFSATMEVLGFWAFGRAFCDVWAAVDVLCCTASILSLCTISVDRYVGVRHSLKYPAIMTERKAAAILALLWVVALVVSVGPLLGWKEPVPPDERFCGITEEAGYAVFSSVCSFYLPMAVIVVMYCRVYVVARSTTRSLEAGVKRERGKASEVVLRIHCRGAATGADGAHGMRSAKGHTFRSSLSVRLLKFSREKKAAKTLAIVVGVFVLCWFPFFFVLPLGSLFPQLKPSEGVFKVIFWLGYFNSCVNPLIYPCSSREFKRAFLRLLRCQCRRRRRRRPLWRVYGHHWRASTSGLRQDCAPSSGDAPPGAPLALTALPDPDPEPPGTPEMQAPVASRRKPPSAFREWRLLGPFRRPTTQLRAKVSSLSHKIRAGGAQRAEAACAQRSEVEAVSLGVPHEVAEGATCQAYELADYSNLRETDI
Chain of UniProt P28222 (whole entry, looked up): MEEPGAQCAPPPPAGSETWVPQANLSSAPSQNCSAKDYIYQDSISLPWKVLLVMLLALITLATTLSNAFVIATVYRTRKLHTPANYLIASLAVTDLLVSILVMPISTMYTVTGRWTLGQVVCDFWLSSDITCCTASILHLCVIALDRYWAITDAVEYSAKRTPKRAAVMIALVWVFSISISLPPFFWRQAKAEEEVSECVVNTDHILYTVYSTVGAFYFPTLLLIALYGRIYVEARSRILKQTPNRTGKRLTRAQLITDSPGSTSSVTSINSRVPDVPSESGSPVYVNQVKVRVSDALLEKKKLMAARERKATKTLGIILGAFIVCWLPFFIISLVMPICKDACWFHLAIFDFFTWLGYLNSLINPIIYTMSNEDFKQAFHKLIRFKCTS
Chain of UniProt Q9BZL6 (whole entry, looked up): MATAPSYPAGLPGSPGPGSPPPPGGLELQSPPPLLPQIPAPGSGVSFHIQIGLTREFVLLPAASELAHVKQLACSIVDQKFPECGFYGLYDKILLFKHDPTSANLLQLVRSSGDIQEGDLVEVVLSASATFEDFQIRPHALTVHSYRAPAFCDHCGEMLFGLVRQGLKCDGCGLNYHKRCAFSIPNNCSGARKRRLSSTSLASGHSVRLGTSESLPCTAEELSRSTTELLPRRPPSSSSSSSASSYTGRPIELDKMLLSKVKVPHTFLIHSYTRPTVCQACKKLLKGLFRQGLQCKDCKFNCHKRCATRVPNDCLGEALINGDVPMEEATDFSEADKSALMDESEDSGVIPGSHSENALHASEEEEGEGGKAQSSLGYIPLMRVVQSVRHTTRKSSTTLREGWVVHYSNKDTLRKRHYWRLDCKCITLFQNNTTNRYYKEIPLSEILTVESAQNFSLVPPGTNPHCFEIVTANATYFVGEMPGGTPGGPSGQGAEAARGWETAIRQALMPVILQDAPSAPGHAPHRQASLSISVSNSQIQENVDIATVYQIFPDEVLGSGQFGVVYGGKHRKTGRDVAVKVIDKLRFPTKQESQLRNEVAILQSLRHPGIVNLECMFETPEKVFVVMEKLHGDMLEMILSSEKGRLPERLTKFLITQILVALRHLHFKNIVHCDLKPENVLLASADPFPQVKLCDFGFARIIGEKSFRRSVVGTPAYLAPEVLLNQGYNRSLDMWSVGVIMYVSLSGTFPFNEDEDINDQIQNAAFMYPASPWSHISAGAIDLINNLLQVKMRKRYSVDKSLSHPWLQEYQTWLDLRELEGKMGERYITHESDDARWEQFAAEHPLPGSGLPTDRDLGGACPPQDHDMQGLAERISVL

SMILES	target or system	test	test system	setting	scale	measurement	value
CC(=O)c1cccc(/N=N/c2cccc([B-](F)(F)F)c2)c1	Chymotrypsinogen A	enzyme activity, inhibitor		pH 7.81, 25 °C, cis-enriched photostationary state, with: Suc-AAPF-AMC		Ki	257000 nM
Cc1c(Cl)c(=O)oc2cc(OCCCCCC[Se]C#N)ccc12	CA9	enzyme activity, inhibitor, stopped-flow				Ki	91.1 nM
CC(C)(C)C(=O)OCOP(=O)(OCOC(=O)C(C)(C)C)C1CCCN(O)C1=O (stereo not drawn)	HCT-15					log GI50	-6.17 log M
C[C@@H](CN1CCC(Cc2ccccc2)CC1)[C@@H](O)c1ccc(O)cc1	OPRK1	cell-free assay				Ki	3130 nM
CC(C)c1ccccc1/N=N/c1cccc([B-](F)(F)F)c1	Chymotrypsinogen A	enzyme activity, competitive inhibitor	buffer with 2 vol% DMSO	pH 7.81, 25 °C, thermally adapted trans state, with: Suc-AAPF-AMC		Ki	103000 nM
OC1Cc2ccccc2CC1N1CCC2(C=Cc3cc(Br)ccc32)CC1 (racemic)	SIGMAR1	binding, radioligand displacement	HEK293 expressing human σ1	with: [3H](+)-pentazocine		Ki	1.7 ± 0.3 nM
CC(=O)NCC(=O)N[C@@H](CCCCN)C(=O)N[C@@H](C)C(=O)N1CCC[C@H]1C(=O)N[C@@H](CCCNC(=N)NCCC[C@H]1O[C@@H](n2cnc3c(N)ncnc32)[C@H](O)[C@@H]1O)C(=O)N[C@@H](CCCCN)C(=O)N[C@@H](CCC(N)=O)C(=O)N[C@@H](CC(C)C)C(=O)N[C@@H](C)C(=O)N[C@H](C(N)=O)[C@@H](C)O (relative stereo)	CARM1	enzyme activity, inhibitor				Ki	20 nM
COC(=O)[C@H]1[C@@H](c2ccc(Cl)cc2)C[C@@H]2CC[C@H]1N2Cc1ccc2cc3ccccc3cc2c1	SLC6A3	ligand displacement, radioligand		pH 7.4		Ki	9.7 nM
CC(=O)NCCCC[C@H](NC(=O)[C@H](CCCNC(=N)NCCC[C@H]1O[C@@H](n2cnc3c(N)ncnc32)[C@H](O)[C@@H]1O)NC(=O)[C@@H]1CCCN1C(C)=O)C(=O)N[C@@H](CCC(N)=O)C(N)=O (relative stereo)	CARM1	enzyme activity, inhibitor				Ki	320 nM
Fc1cccc(F)c1/N=N/c1cccc([B-](F)(F)F)c1	Chymotrypsinogen A	enzyme activity, inhibitor		pH 7.81, 25 °C, cis-enriched photostationary state, with: Suc-AAPF-AMC		Ki	65900 nM
COC(=O)[C@H]1[C@@H](c2ccc(Cl)c(Cl)c2)C[C@@H]2CC[C@H]1N2CCCc1ccc2cc3ccccc3cc2c1	SLC6A3	ligand displacement, radioligand		pH 7.4		Ki	120 nM
N[C@H]1CCOC1=O	CA9	CO2 hydration activity, inhibitor, stopped-flow CO2 hydration		room temperature preincubation		Ki	> 100000 nM
CCCNC(=O)[C@H]1O[C@@H]1C(=O)N[C@H](C(=O)N1CCC[C@H]1C(=O)OCC1=C2C(C)=CC(C)=[N+]2[B-](C)(C)n2c(C)cc(C)c21)[C@@H](C)CC	Cathepsin B (CTSB, Homo sapiens, UniProt P07858)	enzyme activity, irreversible inhibitor		pH 5.5, 25 °C, irradiated 395-750 nm, 15 min, with: Z-Arg-Arg-AMC		Ki	510 ± 9 nM
CS(C)(=O)=Nc1ccc(-c2ccc(-c3nc4cc(O[C@@H]5CO[C@H]6[C@@H]5OC[C@H]6O)[nH]c4cc3F)cc2)cc1	Angiopoietin-1 receptor (TEK, Homo sapiens, UniProt Q02763)	enzyme activity, inhibitor		10 µM		inhibition	-19%
Cc1c(/N=N/c2ccccc2)cccc1[B-](F)(F)F	Chymotrypsinogen A	enzyme activity, competitive inhibitor	buffer with 2 vol% DMSO	pH 7.81, 25 °C, thermally adapted trans state, with: Suc-AAPF-AMC		Ki	138000 nM
COc1cc2c(cc1O)C(CCc1ccc(Cl)cc1)N(C)CC2 (stereo not drawn)	5-hydroxytryptamine receptor 7 (HTR7, Homo sapiens, UniProt P34969)	cell-free assay, radioligand				Ki	1700 nM
COc1ccccc1-c1n[nH]c2nc(NC3CCN(C(=O)Cc4ccc(F)cc4F)CC3)ncc12		bead binding, competition bead pull-down, refers to: LINJ.06.0370	Leishmania donovani extract	10 µM	reference: vehicle	relative abundance	1.08
Cc1cc(O)cc(C)c1C[C@H](N)C(=O)N[C@H](CCCNC(=N)N)C(=O)N[C@@H](Cc1ccccc1)C(=O)N(C)CC(=O)N(C)Cc1cc(C(F)(F)F)cc(C(F)(F)F)c1	Delta-type opioid receptor (OPRD1, Homo sapiens, UniProt P41143, M132A)					Ki	147 nM
COC(=O)[C@H]1[C@@H](c2ccc(Cl)cc2)C[C@@H]2CC[C@H]1N2CCCc1ccc2cc3ccccc3cc2c1	SLC6A3	ligand displacement, radioligand		pH 7.4, cell membranes		Ki	30 nM
O=[N+]([O-])c1ccc(S(=O)(=O)Oc2ccc(/C=N/NS(=O)(=O)c3cc(Cl)ccc3Cl)cc2)cc1	ache	enzyme activity, inhibitor, Ellman				Ki	10.1 nM and 18.4 nM
COc1ccccc1-c1n[nH]c2nc(N[C@H]3CC[C@H](NS(=O)(=O)CC(C)C)CC3)ncc12		bead binding, competition bead pull-down, refers to: LINJ.26.0790	Leishmania donovani extract	10 µM	reference: vehicle	relative abundance	0.86

SMILES	target or system	test	test system	setting	scale	measurement	value
O=C(Cc1ccc(Cl)c(Cl)c1)N1CCN[C@@H]2COC[C@H](N3CCCC3)[C@H]21 (relative stereo)	OPRK1	cell-free assay				Ki	52 nM
Cc1ccccc1/N=N/c1cccc([B-](F)(F)F)c1	Chymotrypsinogen A	enzyme activity, competitive inhibitor	buffer with 2 vol% DMSO	pH 7.81, 25 °C, thermally adapted trans state, with: Suc-AAPF-AMC		Ki	10000 nM
COC(=O)[C@H]1[C@@H](c2ccc(Cl)c(Cl)c2)C[C@@H]2CC[C@H]1N2CCCCCCCCCCCc1c2ccccc2cc2ccccc12	SLC6A3	ligand displacement, radioligand		pH 7.4		Ki	8.9 nM
CSCC[C@H](N)C(=O)N[C@@H](CCCNC(=N)N)C(=O)N[C@H](C(=O)NCC(=O)N[C@@H](CC(N)=O)C(=O)N[C@@H](C)C(=O)N[C@@H](CC(N)=O)C(=O)O)[C@@H](C)O	Uncharacterized protein YejA (yejA, Escherichia coli, UniProt P33913)	binding, competition fluorescence polarization				Ki	~6470 nM and 6470 nM
CN(C)[C@H]1C[C@@]23CC[C@@]4(O2)C(=CC[C@]2(C)[C@@H](c5ccc6ccncc6c5)CC[C@H]24)C=C3[C@@H](O)[C@@H]1O	Serine/threonine-protein kinase D2 (PRKD2, Homo sapiens, UniProt Q9BZL6)	ATP probe labelling, inhibitor, KiNativ profiling		0.1 µM		inhibition	3.5%
C[C@]12COc3ccc(OCc4cccc(Cl)c4)cc3[C@H]1CCN2	SIGMAR1	cell-free assay, radioligand				Ki	1.7 nM
O=C(Cc1ccc(Cl)c(Cl)c1)N1CCN(Cc2ccccc2)[C@@H]2CCC[C@H](N3CCCC3)[C@H]21 (relative stereo)	OPRK1	cell-free assay				Ki	260 nM
COc1ccccc1N1CCN(CCCCN2CCCc3ccccc3C2=O)CC1	Alpha-1D adrenergic receptor (ADRA1D, Homo sapiens, UniProt P25100)	ligand displacement, radioligand				Ki	37.6 nM
COc1ccc(S(=O)(=O)Oc2ccc(/C=N/NS(=O)(=O)c3ccc(Cl)cc3)cc2)cc1	ache	enzyme activity, inhibitor, Ellman				Ki	25.2 nM
C[C@@H](Cc1ccsc1)NC(=O)NC[C@H](Cc1ccc(O)cc1)N(C)C	Muscarinic acetylcholine receptor M1 (CHRM1, Homo sapiens, UniProt P11229)	cell-free assay				Ki	3400 nM
O=C1c2ccccc2CCCN1CCCCN1CCN(c2cccc(Cl)c2Cl)CC1	5-hydroxytryptamine receptor 1B (HTR1B, Homo sapiens, UniProt P28222)	ligand displacement, radioligand				Ki	73 nM
O=C1NC2(CC2)COc2ncc(F)cc2[C@H]2COCCN2c2ccn3ncc1c3n2			Sprague-Dawley rat, female, serum	oral, 10 mg/kg/day, end of recovery, 4-week subacute toxicity		serum total bilirubin	1.4 ± 0.5 µmol/L
CC[C@H](C)[C@H](NC(=O)[C@H](CO)NC(=O)[C@H](Cc1ccc(O)cc1)NC(=O)[C@H](Cc1ccc(O)cc1)NC(=O)[C@H](CC(N)=O)NC(=O)CNC(=O)[C@H](CO)NC(=O)[C@H](Cc1ccc(O)cc1)NC(=O)[C@H](CO)NC(=O)[C@H](CO)NC(=O)[C@H](CC(N)=O)NC(=O)COCCOCCNC(=O)CN1CCN(CC(=O)O)CCN(CC(=O)O)CCN(CC(=O)O)CC1)C(=O)N[C@@H](CC(C)C)C(N)=O [copper-64 labelled]		dynamic PET	mouse, tamoxifen-induced PDAC, blood	intravenous, 0.1 µg/mouse, 1.6 min		tumour uptake	23.2 %ID/mL
CC(C)C[C@H](NC(=O)[C@H](Cc1ccccc1)NC(=O)CNC(=O)CNC(=O)[C@@H](N)Cc1ccc(O)cc1)C(=O)N[C@@H](CCCN=C(N)N)C(=O)N[C@@H](CCCN=C(N)N)C(=O)N[C@@H](CCC(N)=O)C(=O)N[C@@H](Cc1ccccc1)C(=O)N[C@@H](CCCCN)C(=O)N[C@H](C(=O)N[C@H](C(=O)N[C@H](C(=O)O)[C@@H](C)O)C(C)C)C(C)C	Probable G-protein coupled receptor 139 (GPR139, Homo sapiens, UniProt Q6DWJ6)	ligand displacement, radioligand		cell membranes		Ki	259 nM
CN(C)[C@H](CNC(=O)/C=C/c1cccc2ccccc12)Cc1ccc(O)cc1	Beta-2 adrenergic receptor (ADRB2, Homo sapiens, UniProt P07550)	cell-free assay				Ki	6700 nM
CC(C)(C)c1ccc(/N=N/c2cccc([B-](F)(F)F)c2)cc1	Chymotrypsinogen A	enzyme activity, competitive inhibitor	buffer with 2 vol% DMSO	pH 7.81, 25 °C, thermally adapted trans state, with: Suc-AAPF-AMC		Ki	341000 nM
Nc1ncnc2c1c(-c1ccc(Oc3ccccc3)cc1)nn2C1CCCC1	Tyrosine-protein kinase CSK (CSK, Homo sapiens, UniProt P41240, T266M)	enzyme activity, inhibitor				Ki	1420 nM
O=C(O)c1ccc(/N=N/c2cccc([B-](F)(F)F)c2)cc1	Chymotrypsinogen A	enzyme activity, inhibitor		pH 7.81, 25 °C, cis-enriched photostationary state, with: Suc-AAPF-AMC		Ki	554000 nM
CN(C)[C@H]1COC[C@H]2NCCN(C(=O)Cc3ccc(Cl)c(Cl)c3)[C@@H]21 (relative stereo)	OPRK1	cell-free assay				Ki	110 nM
F[B-](F)(F)c1ccc(/N=N/c2ccccc2)cc1	Chymotrypsinogen A	enzyme activity, competitive inhibitor	buffer with 2 vol% DMSO	pH 7.81, 25 °C, thermally adapted trans state, with: Suc-AAPF-AMC		Ki	234000 nM
Cc1ccc(S(=O)(=O)Oc2ccc(/C=N/NS(=O)(=O)c3ccc(Cl)cc3)cc2)cc1	ache	enzyme activity, inhibitor, Ellman				Ki	37.4 nM

For quick reference, copied from above:
SMILES	target or system	test	test system	setting	scale	measurement	value
Fc1cccc(F)c1/N=N/c1cccc([B-](F)(F)F)c1	Chymotrypsinogen A	enzyme activity, inhibitor		pH 7.81, 25 °C, cis-enriched photostationary state, with: Suc-AAPF-AMC		Ki	65900 nM
COC(=O)[C@H]1[C@@H](c2ccc(Cl)c(Cl)c2)C[C@@H]2CC[C@H]1N2CCCc1ccc2cc3ccccc3cc2c1	SLC6A3	ligand displacement, radioligand		pH 7.4		Ki	120 nM
N[C@H]1CCOC1=O	CA9	CO2 hydration activity, inhibitor, stopped-flow CO2 hydration		room temperature preincubation		Ki	> 100000 nM
